Assay results collected from several papers.
Protocols differ between the studies behind these lines. ± gives the spread as reported.

CCCC[C@H](NC(=O)CN1CCC(NC(=O)CN2CCN(CC(=O)O)CCN(CC(=O)O)CCN(CC(=O)O)CC2)CC1)C(=O)N[C@H]1CC(=O)NCCCC[C@@H](C(N)=O)NC(=O)[C@H](Cc2c[nH]c3ccccc23)NC(=O)[C@H](CCCNC(=N)N)NC(=O)[C@@H](Cc2ccccc2)NC(=O)[C@H](Cc2c[nH]cn2)NC1=O [gallium-68 labelled] has a tissue uptake of 2.8 ± 1.6 %ID/g (male C57BL/6J mice, B16-F10 tumours, lungs; intravenous, 1 h, blocking study, with: 100 µg non-radioactive Ga-peptide).
With CCCC[C@@H]1NC(=O)[C@@H](NC(=O)[C@H](CCC(=O)O)NC(=O)CNC(=O)CN2CCN(CC(=O)O)CCN(CC(=O)O)CCN(CC(=O)O)CC2)CCCCNC(=O)C[C@@H](C(N)=O)NC(=O)[C@H](C(C)C)NC(=O)[C@@H]2CCCN2C(=O)[C@H](CCCNC(=N)N)NC(=O)CNC(=O)[C@H](Cc2c[nH]c3ccccc23)NC(=O)[C@H](CCCNC(=N)N)NC(=O)[C@@H](Cc2ccccc2)NC(=O)[C@H](Cc2c[nH]cn2)NC(=O)[C@H](CCC(=O)O)NC1=O [gallium-67 labelled] the tissue uptake was 0.08 ± 0.07 %ID/g (C57 mice with B16/F1 melanoma, stomach; intravenous, 0.037 MBq, 4 h).
For N=C(N)NCCC[C@@H]1NC(=O)[C@H](CCCCNC(=O)CON=C[C@H](F)[C@@H](O)[C@H](O)[C@H](O)CO)NC(=O)[C@@H](Cc2ccc(O)cc2)NC(=O)[C@H](CC(=O)O)NC(=O)CNC1=O [fluorine-18 labelled], the tissue uptake was 0.5 ± 0.02 %ID/g (nude mice U-87 MG tumour, intestine; intravenous, 0.5 h).
The tissue uptake of CC(C)[C@H](NC(=O)[C@@H]1CCCN1C(=O)[C@H](CCCNC(=N)N)NC(=O)[C@H](CS)NC(=O)[C@H](Cc1c[nH]c2ccccc12)NC(=O)[C@H](CCCNC(=N)N)NC(=O)[C@@H](Cc1ccccc1)NC(=O)[C@H](Cc1c[nH]cn1)NC(=O)[C@H](CCC(=O)O)NC(=O)[C@H](CS)NC(=O)[C@H](CS)NC(=O)[C@@H]1CC(=O)N[C@@H](CCCNC(=N)N)C(=O)NCC(=O)N[C@@H](CC(=O)O)C(=O)N[C@H](Cc2ccc(O)cc2)C(=O)N1)C(N)=O [technetium-99m labelled] is reported as 0.44 ± 0.37 %ID/g (C57 mice B16/F1 melanoma female, blood; iv, 2 h, with: NDP-MSH 10 µg co-injected).
With NC12CNCCNCC(NCc3ccc(CNC(=O)CCCC(=O)NCc4ccc(-c5nncnn5)cc4)cc3)(CNCCNC1)CNCCNC2.[64Cu+2] the tissue uptake was 4 ± 0.37 %ID/g (athymic nude mice SW1222 xenograft, blood; 4 h post injection, 24 h accumulation interval, with: huA33-TCO pretargeting).
The tissue uptake of CN1C(=O)[C@@H](Cc2ccc(O)c(I)c2)NC(=O)CNC(=O)[C@H](Cc2ccc3ccccc3c2)NC(=O)[C@H](CCCNC(=N)N)NC(=O)[C@H]1CCCNC(=O)c1ccc(CNC(=O)CN2CCN(CC(=O)O)CCN(CC(=O)O)CCN(CC(=O)O)CC2)cc1 [lutetium-177 labelled] is reported as 0.1 ± 0.01 %ID/g (refers to: 177Lu radioactivity; female CB-17 SCID mice, Daudi xenograft, heart; intravenous, 0.16 nmol per mouse, 96 h).
With CCCC[C@H](NC(=O)CNC(=O)CNC(=O)CN1CCN(CC(=O)O)CCN(CC(=O)O)CC1)C(=O)N[C@H]1CC(=O)NCCCC[C@@H](C(N)=O)NC(=O)[C@H](Cc2c[nH]c3ccccc23)NC(=O)[C@H](CCCNC(=N)N)NC(=O)[C@@H](Cc2ccccc2)NC(=O)[C@H](Cc2c[nH]cn2)NC1=O [gallium-67 labelled] the tissue uptake was 0.65 ± 0.24 %ID/g (female C57 mice, B16/F1 melanoma, skin; intravenous, 0.037 MBq, 4 h).
With O=C([O-])CN1CCN(CC(=O)[O-])CCN(CC(=O)NCCc2ccc3c(c2)C2C=CCC2C(c2cc4c(cc2Br)OCO4)N3)CCN(CC(=O)[O-])CC1.[111In+3] (centres unmarked) the tissue uptake was 14.5 % ID (SPECT/CT imaging; mice with Hec50 tumour xenograft, liver; 1 h).
O=C([O-])c1cccc(CN(CCN(Cc2cn(Cc3ccccc3)nn2)Cc2cccc(C(=O)[O-])n2)Cc2cn(Cc3ccccc3)nn2)n1.[64Cu+2] has a tissue uptake of 2.13 %ID/g (healthy athymic nude mice, stomach; intravenous, 24 h).
N=C(N)NCCC[C@H](NC(=O)CON=C[C@H](F)[C@@H](O)[C@H](O)[C@H](O)CO)C(=O)NCC(=O)N[C@@H](CC(=O)O)C(=O)O [fluorine-18 labelled] gave a tissue uptake of 0.47 ± 0.37 %ID/g (nude mice U-87 MG tumour, lung; intravenous, 2 h).
CCCC[C@H](NC(=O)CNC(=O)CNC(=O)CN1CCN(CC(=O)O)CCN(CC(=O)O)CCN(CC(=O)O)CC1)C(=O)N[C@H]1CC(=O)NCCCC[C@@H](C(N)=O)NC(=O)[C@H](Cc2c[nH]c3ccccc23)NC(=O)[C@H](CCCNC(=N)N)NC(=O)[C@@H](Cc2ccccc2)NC(=O)[C@H](Cc2c[nH]cn2)NC1=O [gallium-67 labelled] has a tissue uptake of 0.32 ± 0.07 %ID/g (female C57 mice, B16/F1 melanoma, muscle; intravenous, 0.037 MBq, 4 h).

For quick reference, copied from above:
With CCCC[C@@H]1NC(=O)[C@@H](NC(=O)[C@H](CCC(=O)O)NC(=O)CNC(=O)CN2CCN(CC(=O)O)CCN(CC(=O)O)CCN(CC(=O)O)CC2)CCCCNC(=O)C[C@@H](C(N)=O)NC(=O)[C@H](C(C)C)NC(=O)[C@@H]2CCCN2C(=O)[C@H](CCCNC(=N)N)NC(=O)CNC(=O)[C@H](Cc2c[nH]c3ccccc23)NC(=O)[C@H](CCCNC(=N)N)NC(=O)[C@@H](Cc2ccccc2)NC(=O)[C@H](Cc2c[nH]cn2)NC(=O)[C@H](CCC(=O)O)NC1=O [gallium-67 labelled] the tissue uptake was 0.08 ± 0.07 %ID/g (C57 mice with B16/F1 melanoma, stomach; intravenous, 0.037 MBq, 4 h).
With O=C([O-])CN1CCN(CC(=O)[O-])CCN(CC(=O)NCCc2ccc3c(c2)C2C=CCC2C(c2cc4c(cc2Br)OCO4)N3)CCN(CC(=O)[O-])CC1.[111In+3] (centres unmarked) the tissue uptake was 14.5 % ID (SPECT/CT imaging; mice with Hec50 tumour xenograft, liver; 1 h).
